Measurements from different studies.
Compare with care: the assays were run in different laboratories. Several values in a cell are separate wells, animals, samples, runs or records. ± marks the error that the study gave.
prp N63Q: Ribosomal processing cysteine protease Prp (prp, Staphylococcus aureus, UniProt Q2FXS9, N63Q)
UniProt Q09013, sequence (whole entry, looked up): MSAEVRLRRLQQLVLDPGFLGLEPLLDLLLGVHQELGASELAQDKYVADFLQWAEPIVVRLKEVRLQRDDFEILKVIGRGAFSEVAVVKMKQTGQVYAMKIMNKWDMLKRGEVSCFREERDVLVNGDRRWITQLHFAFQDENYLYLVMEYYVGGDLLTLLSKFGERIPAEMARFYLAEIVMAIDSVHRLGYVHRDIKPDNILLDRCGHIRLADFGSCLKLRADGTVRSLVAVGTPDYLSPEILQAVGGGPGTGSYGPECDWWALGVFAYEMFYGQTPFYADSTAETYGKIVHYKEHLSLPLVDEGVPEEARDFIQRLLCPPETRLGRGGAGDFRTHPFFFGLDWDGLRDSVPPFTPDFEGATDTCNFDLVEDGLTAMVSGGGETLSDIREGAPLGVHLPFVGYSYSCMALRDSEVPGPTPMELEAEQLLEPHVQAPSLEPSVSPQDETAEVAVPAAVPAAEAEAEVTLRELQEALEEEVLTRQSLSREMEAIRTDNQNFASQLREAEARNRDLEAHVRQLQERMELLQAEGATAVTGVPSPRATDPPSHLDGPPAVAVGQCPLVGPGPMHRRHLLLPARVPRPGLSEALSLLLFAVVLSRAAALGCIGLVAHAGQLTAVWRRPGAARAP
UniProt Q13258, sequence (whole entry, looked up): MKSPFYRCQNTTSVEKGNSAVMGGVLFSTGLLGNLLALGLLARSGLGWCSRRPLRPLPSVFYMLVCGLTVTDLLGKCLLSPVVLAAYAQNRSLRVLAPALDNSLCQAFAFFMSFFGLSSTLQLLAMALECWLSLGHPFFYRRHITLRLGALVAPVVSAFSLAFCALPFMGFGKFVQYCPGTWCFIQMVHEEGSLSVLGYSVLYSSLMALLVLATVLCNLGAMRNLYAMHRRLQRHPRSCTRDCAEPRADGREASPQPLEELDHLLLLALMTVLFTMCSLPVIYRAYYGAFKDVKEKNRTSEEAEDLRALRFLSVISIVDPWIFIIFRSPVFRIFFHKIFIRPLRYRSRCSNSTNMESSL
UniProt Q9UBF8, sequence (whole entry, looked up): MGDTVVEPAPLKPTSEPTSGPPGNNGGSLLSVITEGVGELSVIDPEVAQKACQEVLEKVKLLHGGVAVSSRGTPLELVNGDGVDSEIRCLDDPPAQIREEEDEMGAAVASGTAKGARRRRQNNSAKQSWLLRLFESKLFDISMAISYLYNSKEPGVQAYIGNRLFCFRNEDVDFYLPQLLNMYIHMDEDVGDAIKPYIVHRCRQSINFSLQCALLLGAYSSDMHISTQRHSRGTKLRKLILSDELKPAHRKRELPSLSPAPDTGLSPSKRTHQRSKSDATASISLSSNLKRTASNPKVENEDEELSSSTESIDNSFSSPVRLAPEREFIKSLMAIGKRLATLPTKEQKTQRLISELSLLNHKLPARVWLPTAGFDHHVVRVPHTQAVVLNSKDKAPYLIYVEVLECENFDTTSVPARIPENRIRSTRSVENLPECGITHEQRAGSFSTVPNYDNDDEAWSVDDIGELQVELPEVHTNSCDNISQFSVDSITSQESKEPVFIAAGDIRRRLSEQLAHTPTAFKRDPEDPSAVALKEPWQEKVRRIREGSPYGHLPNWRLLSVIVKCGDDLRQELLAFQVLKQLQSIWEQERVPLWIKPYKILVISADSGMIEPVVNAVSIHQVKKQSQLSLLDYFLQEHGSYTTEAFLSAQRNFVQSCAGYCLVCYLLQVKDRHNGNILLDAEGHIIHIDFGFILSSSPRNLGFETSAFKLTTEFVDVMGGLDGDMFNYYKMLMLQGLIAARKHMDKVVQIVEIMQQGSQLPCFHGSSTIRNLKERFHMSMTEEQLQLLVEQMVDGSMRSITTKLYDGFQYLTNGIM
UniProt P37288, sequence (whole entry, looked up): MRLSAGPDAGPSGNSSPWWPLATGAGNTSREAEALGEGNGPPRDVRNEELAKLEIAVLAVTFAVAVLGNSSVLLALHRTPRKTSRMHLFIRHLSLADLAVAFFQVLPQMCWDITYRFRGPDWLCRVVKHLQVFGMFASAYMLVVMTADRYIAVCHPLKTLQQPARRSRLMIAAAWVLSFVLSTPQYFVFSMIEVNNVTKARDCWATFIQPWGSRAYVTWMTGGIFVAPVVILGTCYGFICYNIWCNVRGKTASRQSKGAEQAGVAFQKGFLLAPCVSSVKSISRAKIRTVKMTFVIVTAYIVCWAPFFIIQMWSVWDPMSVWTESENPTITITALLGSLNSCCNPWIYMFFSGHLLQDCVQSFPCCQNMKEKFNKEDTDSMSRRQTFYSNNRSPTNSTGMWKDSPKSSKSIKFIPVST
UniProt Q8WU58, sequence (whole entry, looked up): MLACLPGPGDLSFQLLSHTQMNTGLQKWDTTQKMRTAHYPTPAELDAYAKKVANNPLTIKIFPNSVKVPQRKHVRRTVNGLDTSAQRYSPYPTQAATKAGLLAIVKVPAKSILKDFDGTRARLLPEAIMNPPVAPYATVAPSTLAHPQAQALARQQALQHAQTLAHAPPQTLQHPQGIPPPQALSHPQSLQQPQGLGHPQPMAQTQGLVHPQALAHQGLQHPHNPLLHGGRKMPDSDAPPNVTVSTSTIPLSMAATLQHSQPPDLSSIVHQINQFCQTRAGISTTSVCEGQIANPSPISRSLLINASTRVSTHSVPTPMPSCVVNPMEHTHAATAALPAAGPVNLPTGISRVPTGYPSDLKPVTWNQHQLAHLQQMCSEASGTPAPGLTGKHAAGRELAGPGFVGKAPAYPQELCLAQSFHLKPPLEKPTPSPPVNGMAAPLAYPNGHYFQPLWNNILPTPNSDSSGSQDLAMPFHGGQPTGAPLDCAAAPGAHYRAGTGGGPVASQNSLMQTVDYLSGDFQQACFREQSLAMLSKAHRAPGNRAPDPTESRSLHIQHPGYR
UniProt Q8TDC3, sequence (whole entry, looked up): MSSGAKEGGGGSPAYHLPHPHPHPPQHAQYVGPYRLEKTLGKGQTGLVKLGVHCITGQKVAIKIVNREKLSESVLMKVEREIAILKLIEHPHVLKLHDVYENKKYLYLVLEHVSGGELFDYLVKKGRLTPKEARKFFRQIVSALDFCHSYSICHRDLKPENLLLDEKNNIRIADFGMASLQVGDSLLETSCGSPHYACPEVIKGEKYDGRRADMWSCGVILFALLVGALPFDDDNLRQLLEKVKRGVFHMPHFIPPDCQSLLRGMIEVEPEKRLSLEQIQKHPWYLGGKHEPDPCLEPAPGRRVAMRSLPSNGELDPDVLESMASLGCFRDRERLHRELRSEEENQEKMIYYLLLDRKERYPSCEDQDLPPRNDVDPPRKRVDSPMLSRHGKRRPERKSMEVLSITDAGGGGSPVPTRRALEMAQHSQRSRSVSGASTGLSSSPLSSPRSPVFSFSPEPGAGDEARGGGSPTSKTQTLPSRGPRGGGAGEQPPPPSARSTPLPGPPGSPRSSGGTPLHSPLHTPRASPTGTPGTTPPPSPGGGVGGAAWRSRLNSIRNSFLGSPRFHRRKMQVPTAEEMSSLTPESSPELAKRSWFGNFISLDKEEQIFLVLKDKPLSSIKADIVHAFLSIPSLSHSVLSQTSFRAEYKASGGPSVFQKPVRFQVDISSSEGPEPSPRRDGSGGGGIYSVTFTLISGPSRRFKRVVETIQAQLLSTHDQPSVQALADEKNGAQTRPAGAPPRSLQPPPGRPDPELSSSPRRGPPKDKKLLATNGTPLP

Compound	target or system	assay	test system	conditions	scale	measurement	result
CC(=O)NC[C@H]1[C@H](O)[C@H](O)[C@@H]2[C@H](O)C[C@@H](CO)N21	human placental β-N-acetylglucosaminidase			0.00161 µM, run 1, together with: p-nitrophenyl GlcNAc		inhibition	15.5%
C[C@H]1CN(c2n[nH]c3nc(N[C@H]4CC[C@H](NS(=O)(=O)CCC(F)(F)F)CC4)ncc23)CCO1	Protein FAM222B (Homo sapiens, UniProt Q8WU58)	competitor, Kinobeads competition	HEK293, K562, placenta extract	0.16 µM	reference: vehicle	remaining binding	71%
O=C(Nc1cnccc1Cl)N1CCN(Cc2ccc3c(c2)OC(F)(F)O3)CC1	DMPK (Homo sapiens, UniProt Q09013)	kinase activity, inhibitor		50 µM, together with: Axltide substrate		inhibition	-12%
CC[C@H](C)[C@H](NC(=O)[C@H](Cc1ccccc1)NC(=O)[C@H](CCC(=O)O)NC(=O)[C@H](CCCNC(=N)N)NC(=O)[C@H](C)NC(=O)[C@H](C)NC(=O)[C@H](CCC(N)=O)NC(=O)[C@H](CCC(=O)O)NC(=O)[C@H](CCC(=O)O)NC(=O)[C@H](CC(C)C)NC(=O)[C@H](Cc1ccc(O)cc1)NC(=O)[C@H](CO)NC(=O)[C@H](CO)NC(=O)[C@@H](NC(=O)[C@H](CC(=O)O)NC(=O)[C@H](CO)NC(=O)[C@@H](NC(=O)[C@H](Cc1ccccc1)NC(=O)[C@@H](NC(=O)CNC(=O)[C@H](CCC(=O)O)NC(=O)[C@H](C)NC(=O)CCc1c[nH]cn1)[C@@H](C)O)[C@@H](C)O)C(C)C)C(=O)N[C@@H](C)C(=O)N[C@@H](Cc1c[nH]c2ccccc12)C(=O)N[C@@H](CC(C)C)C(=O)N[C@H](C(=O)N[C@@H](CCCNC(=N)N)C(=O)NCC(=O)N[C@@H](CCCNC(=N)N)C(=O)N[C@@H](CCCCNC(=O)COCCOCCNC(=O)COCCOCCNC(=O)CC[C@H](NC(=O)CCCCCCCCCCCCCCCCC(=O)O)C(=O)O)C(=O)NCC(=O)NCC(=O)N[C@@H](CO)C(=O)N[C@@H](CCCCNc1c(NCCCCCN(O)C(=O)CCC(=O)NCCCCCN(O)C(=O)CCC(=O)NCCCCCN(O)C(C)=O)c(=O)c1=O)C(=O)O)C(C)C [zirconium-89 labelled]		ex vivo gamma counting	rat, colon content	subcutaneous, 3 nmol/kg, 4 h, together with: [89Zr]-labelled peptide		tissue uptake	0.01 %ID/g
CO[C@H]1C[C@@H]2CC[C@@H](C)[C@@](O)(O2)C(=O)C(=O)N2CCCC[C@H]2C(=O)O[C@H]([C@H](C)C[C@@H]2CC[C@@H](OC(=O)NCCOCCOCCOCCOCCOCCOCCOCCOCCC(=O)N3CCc4cc(Cn5nc(-c6ccc7oc(N)nc7c6)c6c(N)ncnc65)ccc4C3)[C@H](OC)C2)C[C@@H](O)[C@H](C)/C=C(\C)[C@@H](O)[C@@H](OC)C(=O)[C@H](C)C[C@H](C)/C=C/C=C/C=C/1C			patients with advanced solid tumours	intravenous, once weekly, without dexamethasone prophylaxis		maximum tolerated dose	8 mg
CN(C(=O)n1cnc(-c2ccc[n+]([O-])c2)c1)C1CCCCC1	somatostatin sst3 receptor			concentration not given		inhibition	18% and 11%
CC[C@H](C)[C@@H]1NC(=O)[C@@H]2CCCN2C(=O)[C@H](CC(C)C)NC(=O)[C@H](CC(C)C)NC(=O)CNC(=O)[C@@H](NC(=O)[C@@H](NC(=O)[C@H](CC(=O)O)NC(=O)CNC(=O)[C@@H](NC(=O)[C@H](C)NC(=O)CNC(=O)[C@H](CCCCN)NC(=O)[C@H](CC(C)C)NC(=O)[C@H](CC(C)C)NC(=O)[C@H](CCCCN)NC(=O)CNC(=O)[C@@H](NC(=O)[C@@H](N)CC(C)C)C(C)C)C(C)C)C(C)C)CSSC[C@@H](C(=O)O)NC1=O		RNA-seq, refers to: Ltf mRNA	mouse traumatic brain injury, frontal cortex and hippocampus	dose not given	reference: TBI plus compound vs TBI	log2 fold change	-2.83
COc1ccc(N2C(=O)N(c3c(C)cccc3Cl)Cc3cnc(Nc4ccc(C5CCN(C)CC5)cc4OC)nc32)nc1	PI4KB (Homo sapiens, UniProt Q9UBF8)	kinase activity, inhibitor		0.5 µM, kinase PI4K-BETA		inhibition	-6%
O=C(Nc1cccnn1)N1CCC(=Cc2cccc(Oc3ccc(C(F)(F)F)cn3)c2)CC1	PTGDR (Homo sapiens, UniProt Q13258)	radioligand binding, inhibitor		50 µM, human, together with: [3H]prostaglandin D2		inhibition	38%
CC(=O)Oc1ccccc1C(=O)O	prp N63Q	enzyme activity, inhibitor		10 µM, prp 21.4 nM, together with: FITC peptide substrate 0.5 µM		inhibition	10.6 ± 6.3%
COc1cc(Nc2ncc(F)c(Nc3ccc4c(n3)NC(=O)C(C)(C)O4)n2)cc(OC)c1OC	BRSK1 (Homo sapiens, UniProt Q8TDC3)	KINOMEscan		10 µM		inhibition	0%
CCCc1ccc(OCC(=O)N(Cc2nc(-c3cccnc3)no2)C(C)C)cc1	prp N63Q	enzyme activity		10 µM, 21.4 nM enzyme dimer, together with: 0.5 µM FITC-labelled peptide substrate		inhibition	21.3 ± 5%
CN1CCN(c2cc(-c3ccncc3)c(-c3ccc4ccccc4c3)nn2)CC1	AVPR1A (Homo sapiens, UniProt P37288)	antagonist, FLIPR		10 µM		inhibition	-0.4%
CC(C)C[C@@H](C=O)NC(=O)[C@H](CC(C)C)NC(=O)[C@H](CC(C)C)NC(=O)OCc1ccccc1	prp N63Q	enzyme activity, inhibitor		10 µM, prp 21.4 nM, together with: FITC peptide substrate 0.5 µM		inhibition	-17 ± 10.3%
COc1cc2c(Oc3ccc4[nH]c(C)cc4c3F)ccnc2cc1OCC1(N)CC1			paediatric refractory sarcoma patients	8 mg/kg		patients with grade 3 ALP elevation	0%

Some of these lines once more:
Compound	target or system	assay	test system	conditions	scale	measurement	result
CC(C)C[C@@H](C=O)NC(=O)[C@H](CC(C)C)NC(=O)[C@H](CC(C)C)NC(=O)OCc1ccccc1	prp N63Q	enzyme activity, inhibitor		10 µM, prp 21.4 nM, together with: FITC peptide substrate 0.5 µM		inhibition	-17 ± 10.3%
COc1cc2c(Oc3ccc4[nH]c(C)cc4c3F)ccnc2cc1OCC1(N)CC1			paediatric refractory sarcoma patients	8 mg/kg		patients with grade 3 ALP elevation	0%
